# Results of several laboratories.
# Every numbered part comes from another study and shows a few of its results, in no order.
# Sequence of UniProt Q15418 (whole entry, looked up): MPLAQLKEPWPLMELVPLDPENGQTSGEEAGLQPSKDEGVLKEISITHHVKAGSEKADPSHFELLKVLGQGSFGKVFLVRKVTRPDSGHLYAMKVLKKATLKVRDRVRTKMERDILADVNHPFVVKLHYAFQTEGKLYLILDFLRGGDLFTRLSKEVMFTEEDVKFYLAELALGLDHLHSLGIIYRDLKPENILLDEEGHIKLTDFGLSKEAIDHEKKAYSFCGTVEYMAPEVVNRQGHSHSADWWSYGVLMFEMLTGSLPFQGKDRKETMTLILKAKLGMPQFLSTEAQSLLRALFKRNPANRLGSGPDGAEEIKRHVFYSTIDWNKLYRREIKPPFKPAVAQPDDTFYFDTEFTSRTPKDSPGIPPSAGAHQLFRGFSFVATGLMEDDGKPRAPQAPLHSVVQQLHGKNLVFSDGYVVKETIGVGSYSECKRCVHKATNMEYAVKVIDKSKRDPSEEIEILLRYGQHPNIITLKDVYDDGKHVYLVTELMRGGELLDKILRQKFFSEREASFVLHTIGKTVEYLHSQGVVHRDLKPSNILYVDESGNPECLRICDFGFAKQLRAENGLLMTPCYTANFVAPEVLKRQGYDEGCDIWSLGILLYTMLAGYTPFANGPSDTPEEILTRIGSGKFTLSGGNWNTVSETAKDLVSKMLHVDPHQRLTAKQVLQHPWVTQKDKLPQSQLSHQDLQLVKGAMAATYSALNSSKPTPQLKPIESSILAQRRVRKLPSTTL
# Sequence of UniProt P06239 (whole entry, looked up): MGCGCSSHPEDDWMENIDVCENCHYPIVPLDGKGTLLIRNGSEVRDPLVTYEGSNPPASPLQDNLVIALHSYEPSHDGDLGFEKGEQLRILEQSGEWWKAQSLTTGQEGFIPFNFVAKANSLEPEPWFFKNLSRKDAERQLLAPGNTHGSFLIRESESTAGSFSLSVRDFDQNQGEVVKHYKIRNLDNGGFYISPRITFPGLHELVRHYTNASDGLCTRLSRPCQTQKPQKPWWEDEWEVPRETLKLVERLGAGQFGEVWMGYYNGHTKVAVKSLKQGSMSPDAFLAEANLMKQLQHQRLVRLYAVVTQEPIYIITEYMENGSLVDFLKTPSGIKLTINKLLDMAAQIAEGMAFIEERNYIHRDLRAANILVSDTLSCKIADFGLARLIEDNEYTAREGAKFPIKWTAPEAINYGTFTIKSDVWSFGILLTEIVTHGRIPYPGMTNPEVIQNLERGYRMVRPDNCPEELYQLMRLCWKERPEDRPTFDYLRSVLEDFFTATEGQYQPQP
# Sequence of UniProt Q06187 (whole entry, looked up): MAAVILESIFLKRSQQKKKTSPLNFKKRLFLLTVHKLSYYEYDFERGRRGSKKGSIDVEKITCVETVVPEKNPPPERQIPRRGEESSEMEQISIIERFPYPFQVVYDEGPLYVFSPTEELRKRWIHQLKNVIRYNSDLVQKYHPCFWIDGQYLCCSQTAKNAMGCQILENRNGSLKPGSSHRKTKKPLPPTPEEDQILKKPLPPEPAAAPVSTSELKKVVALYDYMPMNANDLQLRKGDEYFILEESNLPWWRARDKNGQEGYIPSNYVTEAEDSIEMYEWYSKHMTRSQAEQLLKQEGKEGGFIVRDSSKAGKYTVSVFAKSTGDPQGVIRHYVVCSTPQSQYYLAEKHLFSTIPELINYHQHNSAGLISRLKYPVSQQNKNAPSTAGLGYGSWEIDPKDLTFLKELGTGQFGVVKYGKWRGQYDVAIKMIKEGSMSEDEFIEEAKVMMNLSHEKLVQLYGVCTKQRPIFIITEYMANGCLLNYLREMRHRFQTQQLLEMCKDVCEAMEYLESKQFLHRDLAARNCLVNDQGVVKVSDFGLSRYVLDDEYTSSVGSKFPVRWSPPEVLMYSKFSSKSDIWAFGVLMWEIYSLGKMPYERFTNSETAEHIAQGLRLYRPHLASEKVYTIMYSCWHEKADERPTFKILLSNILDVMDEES
# Sequence of UniProt O43283 (whole entry, looked up): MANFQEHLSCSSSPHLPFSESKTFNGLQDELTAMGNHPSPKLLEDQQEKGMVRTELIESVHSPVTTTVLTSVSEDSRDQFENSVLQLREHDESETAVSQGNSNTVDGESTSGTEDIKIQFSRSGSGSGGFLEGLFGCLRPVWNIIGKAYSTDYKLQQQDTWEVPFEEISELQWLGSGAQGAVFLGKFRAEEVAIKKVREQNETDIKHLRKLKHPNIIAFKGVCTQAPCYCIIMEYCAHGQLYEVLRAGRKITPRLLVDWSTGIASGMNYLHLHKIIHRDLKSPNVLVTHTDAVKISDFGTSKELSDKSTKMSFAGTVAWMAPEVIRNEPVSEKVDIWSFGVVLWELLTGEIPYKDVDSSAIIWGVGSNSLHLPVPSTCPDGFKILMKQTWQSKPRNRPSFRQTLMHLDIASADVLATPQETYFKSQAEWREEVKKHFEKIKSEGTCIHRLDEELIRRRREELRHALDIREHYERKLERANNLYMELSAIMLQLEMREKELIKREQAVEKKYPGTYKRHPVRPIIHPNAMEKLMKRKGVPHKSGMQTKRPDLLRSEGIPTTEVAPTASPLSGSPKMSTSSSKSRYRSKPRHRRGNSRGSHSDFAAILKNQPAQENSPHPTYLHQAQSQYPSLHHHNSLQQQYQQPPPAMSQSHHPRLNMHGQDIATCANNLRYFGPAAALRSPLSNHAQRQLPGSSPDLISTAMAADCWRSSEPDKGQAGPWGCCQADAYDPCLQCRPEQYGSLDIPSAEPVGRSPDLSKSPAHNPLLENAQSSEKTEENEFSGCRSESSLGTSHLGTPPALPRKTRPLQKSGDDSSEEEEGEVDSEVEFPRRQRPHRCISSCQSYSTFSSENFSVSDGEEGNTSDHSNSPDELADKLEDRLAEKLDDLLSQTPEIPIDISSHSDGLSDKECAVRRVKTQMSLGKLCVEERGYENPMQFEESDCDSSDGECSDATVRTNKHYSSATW

# Set 1 — read-out: cell-free assay; technique: competition with immobilised ligand; tested at: 1 µM
# SMILES: COc1cccc(CNC(=O)c2nc3scc(COCc4ccc(C(=O)O)cc4)c3c(=O)[nH]2)c1
target,remaining binding [%]
"LCK (Homo sapiens, UniProt P06239)",100
"BTK (Homo sapiens, UniProt Q06187)",63
"MAP3K13 (Homo sapiens, UniProt O43283)",61.5
"Ribosomal protein S6 kinase alpha-1, N-terminal kinase domain (RPS6KA1, Homo sapiens, UniProt Q15418)",100

# Set 2 — cell line: A-375; tested at: 100 µM; time: 18 h
SMILES,viability
CN(Cc1ccc(C(C)(C)C)cc1)Cc1cccc2ccccc12,32.2%
CC1=C(CC(=O)O)c2cc(F)ccc2/C1=C\c1ccc([S+](C)[O-])cc1 (stereo not shown),98.9%
CC[C@@]1(O)C(=O)OCc2c1cc1n(c2=O)Cc2cc3c(CN(C)C)c(O)ccc3nc2-1,61.4%
Cc1nccnc1N1CCCCC1,82.9%
O=[N+]([O-])c1cncn1CCN1CCOCC1,97.8%

# Set 3 — host: human; medium: microsomes or S9; tested at: 2 µM; time: 0.5 h
Compound,remaining compound [%]
Cc1csc2c(N3CCC(S(=O)(=O)NC(C)C)C3)ncnc12 (stereo not shown),85.9
CN1CCN(C(=O)c2ccc(-c3ccc4nnc(Cc5cccc6c(=O)[nH]ccc56)n4n3)cc2)CC1,0
CCn1nc(CN[C@@H]2CCC(=O)N[C@H]2c2ccnn2C)c2ccccc21,85.8
CCOc1ccc(CNC(=O)C(NS(=O)(=O)c2ccc3c(c2)CCCC(=O)N3)C(C)C)cc1 (stereo not shown),66
COc1cc(Br)c(S(=O)(=O)NC2CCN(S(=O)(=O)CCN3CCCCC3)CC2)cc1OC,0.0275
c1ccc(Oc2ccc(Nc3ncnc4[nH]ncc34)cc2)cc1,1.51
Cc1ccccc1S(=O)(=O)Nc1cccc2[nH]ccc12,42.6

# Set 4 — read-out: enzyme activity; action: inhibitor; tested at: 0.5 µM; baseline: control
# Target: Ribosomal protein S6 kinase alpha-1 (RPS6KA1, Homo sapiens, UniProt Q15418)
Compound,remaining activity [%]
OCC(O)CCON=C1C(c2c(O)[nH]c3ccccc23)=Nc2ccccc21 (stereo not shown),8.85
Cc1ccc(NC(=O)c2ccc(CN3CCN(C)CC3)cc2)cc1Nc1nc(-c2cccnc2)cs1,97.2
Nc1ncnc2n[nH]c(Nc3ccc(F)cc3)c12,82.2
O=C(Nc1cccc(Nc2cc(Nc3cccc(C(F)(F)F)c3)ncn2)c1)C1CC1,95.1
CC(C)[C@H](CO)Nc1nc(Nc2cc(N)cc(Cl)c2)c2ncn(C(C)C)c2n1,37.2
NCCNc1ncc(C(N)=O)c(Nc2cccc(C(F)(F)F)c2)n1,84.3
Nc1[nH]nc2nc3ccccc3nc12,97.9
Cn1c2ccccc2c2c3c(c4c5ccccc5n(CCC#N)c4c21)CNC3=O,9.7
N#CC(C#N)=C(N)/C(C#N)=C/c1ccc(O)cc1,93.8
CO[C@H]1C[C@@H]2CC[C@@H](C)[C@@](O)(O2)C(=O)C(=O)N2CCCC[C@H]2C(=O)O[C@H]([C@H](C)C[C@@H]2CC[C@@H](O)[C@H](OC)C2)CC(=O)[C@H](C)/C=C(\C)[C@@H](O)[C@@H](OC)C(=O)[C@H](C)C[C@H](C)/C=C/C=C/C=C/1C,104
O=C1NC(=O)C(c2cn(CCCO)c3ncccc23)=C1c1cnccn1,94.8
COc1ccc(OC)c2c(=S)c3ccccc3[nH]c12,94.6
Cc1cccc(-c2[nH]c(C(C)(C)C)nc2-c2ccc3c(c2)OCO3)n1,96.4
O=C(O)c1ccc2c3c1cccc3c(=O)n1c3ccccc3nc21,101
COc1ccc(C(=O)Nc2sc3c(c2C(N)=O)CCCC3)cc1OC,87
